Experimental data of several laboratories.
A part holds a random share of what one study measured.

Sample 1 — technique: protein binding microarray; form: double-stranded DNA, one strand shown; matrix: in vitro; concentration: not given; relative to: not given; direction: higher = stronger binding
Target: Histone acetyltransferase KAT6A, winged helix 1, GST fusion (KAT6A, Homo sapiens, UniProt Q92794, residues 1-85)
Setting: 8-mer, flanks averaged, mean of 2 arrays, mostly near background
Residues (chain): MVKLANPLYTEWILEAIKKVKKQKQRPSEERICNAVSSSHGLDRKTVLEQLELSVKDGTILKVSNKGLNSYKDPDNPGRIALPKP
| Sequence | E-score |
| --- | --- |
| CAGGTGTA | -0.105 |
| CAGCTCGA | -0.0881 |
| GGCCTTTA | 0.156 |
| CGTAGGTA | 0.111 |
| ATGAAATA | -0.228 |
| AACACGCG | 0.264 |
| GGGTGTTA | 0.0347 |
| GACCTATA | -0.0767 |
| ATCAGAGC | -0.0567 |
| CCCCTGAG | -0.195 |
| ACCGTCTG | 0.139 |
| TGCATCCA | -0.253 |
| CGATGGTC | -0.0175 |
| GGTCAGTA | 0.133 |
| GCTGCACA | 0.0863 |
| GTAGATAC | -0.0678 |
| CTGGTGAC | -0.074 |
| CGACCAGA | -0.105 |
| CACTCCTG | -0.152 |
| AGAGTTAG | -0.164 |
| CCAGTGTA | -0.0983 |
| CAATTGCA | -0.097 |
| GCCGATCA | 0.0514 |
| AGACACTG | -0.169 |
| CCACATTC | -0.115 |

Sample 2 — technique: protein-binding microarray; form: double-stranded DNA, one strand shown; matrix: in vitro; concentration: 250 nM; setting: 60-bp whole probe; added: salmon DNA 0.4 mg/ml; relative to: random background probes; direction: higher = stronger binding; shared flanks, not repeated: GCCTAGCAC … GTCTTGATTCGCTTGACGCTGCTG
Target: Interferon regulatory factor 5, full length, phosphomimetic (IRF5, Homo sapiens, UniProt Q13568-2, residues 1-514, K96S/S451D/S453D/S456D/S462D)
| Sequence | log fluorescence [z-score] |
| --- | --- |
| TTAGGACTGCTTAACCTTTAGTGCTAG | -0.213 |
| TTAGATCTCAGTTCCGATTAGTGCTAG | 0.999 |
| TTAGGTTTCCTTTTCCTTCAGTGCTAG | 1.68 |
| TTAGGTTCCGGTTTCGGTTAGTGCTAG | 9.28 |
| GACGGTTCCCTTTTCCTGAGGTGCTAG | 0.386 |
| TCAACTCTCTACATGGGACTGTGCTAG | -0.0483 |
| GACGATTTCGGTATCGGGACGTGCTAG | 7.17 |
| TCACTCACCTAGTTTCATACTGTGCTA | 2 |
| TTAGGTATTCTTCTCCTTTAGTGCTAG | 0.382 |
| GACGATCTGGGGACTGGAGACGTGCTA | -0.492 |
| TTAGGTTTCGGGTATAGGTTAGTGCTA | 8.46 |
| GACGGTTTCGGTTCCGGGTCGTGCTAG | 9.74 |
| GACGGTTTCGATTATCGGGACGTGCTA | 9.14 |
| GACGGACTGGACACTGGCGACGTGCTA | -0.77 |
| GACGATTTCGGGTATCGAGATGTGCTA | 5.12 |
| TACGGTTTCCTTCTCCTGACGTGCTAG | 0.922 |
| TTAGGACTGGACTTTCGGTTCGTGCTA | 8.52 |
| GACGGTCTCCCACTGCTGACGTGCTAG | -0.368 |
| TTAGGTAGCGGGTTTCGGTTAGTGCTA | 7.52 |

Sample 3 — technique: aptamer microarray, sandwich; form: DNA with 2'F-ANA; matrix: in vitro; concentration: 200 nM; added: Cy3 exosite-II aptamer, 400 nM; direction: higher = stronger binding; sequence: GGTTGGTGTGGTTGG
Target: Prothrombin, mature alpha-thrombin (F2, Homo sapiens, UniProt P00734)
Setting: whole 15-mer aptamer, many near background
| Modification | mean fluorescence intensity [a.u.] |
| --- | --- |
| 2'F-ANA at 2 3 5 6 7 8 11 13 15 | 73.9 |
| 2'F-ANA at 1 3 5 6 8 9 10 12 | 55.1 |
| 2'F-ANA at 1 2 4 6 7 8 9 10 12 13 | 56.6 |
| 2'F-ANA at 6 7 9 10 13 14 15 | 108 |
| 2'F-ANA at 1 2 3 4 5 9 10 12 13 14 15 | 50.5 |
| 2'F-ANA at 4 5 9 10 12 13 14 | 45.9 |
| 2'F-ANA at 5 11 13 14 15 | 43.6 |
| 2'F-ANA at 1 2 3 10 11 13 15 | 62.6 |
| 2'F-ANA at 1 3 4 5 6 7 9 10 11 13 14 | 49.9 |
| 2'F-ANA at 1 2 3 4 7 8 9 10 11 12 | 81.7 |
| 2'F-ANA at 1 2 3 8 10 11 14 15 | 51.7 |
| 2'F-ANA at 1 2 3 4 8 9 11 12 13 14 15 | 68.4 |
| 2'F-ANA at 6 11 12 13 15 | 552 |
| 2'F-ANA at 4 6 7 9 10 11 15 | 91.2 |
| 2'F-ANA at 2 8 9 15 | 470 |
| 2'F-ANA at 3 4 5 6 8 9 11 13 15 | 73.6 |
| 2'F-ANA at 2 6 11 12 14 | 147 |
| 2'F-ANA at 1 2 5 7 9 10 12 14 | 46.1 |
| 2'F-ANA at 1 2 3 5 6 11 12 13 | 85.9 |
| 2'F-ANA at 1 2 4 8 10 11 13 15 | 71.2 |
| 2'F-ANA at 2 7 8 9 14 | 214 |
| 2'F-ANA at 2 3 4 5 7 8 9 11 14 | 47.2 |
| 2'F-ANA at 1 2 4 6 8 12 13 15 | 200 |

Sample 4 — technique: RNA Bind-n-Seq; form: RNA; matrix: in vitro; concentration: 365 nM; relative to: no-protein control; direction: higher = stronger binding
Target: RNA binding protein fox-1 homolog 2, RRM domain, GST-SBP tag (RBFOX2, Homo sapiens, UniProt O43251-10, residues 100-194)
Setting: natural RNA segment, single round, ends assumed
Target sequence (chain): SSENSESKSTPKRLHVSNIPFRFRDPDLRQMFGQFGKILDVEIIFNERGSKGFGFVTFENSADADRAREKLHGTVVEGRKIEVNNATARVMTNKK
| Sequence | RBNS enrichment (R) |
| --- | --- |
| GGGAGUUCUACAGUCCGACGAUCCUGGUUCUGCGGACCCAGGAAGGGCCAGGCUGGGGCCCUGCUUGUGUUUAUCCUCGGCUGCUGUCUUCCCAGCAGGCCCCAGGCAAGGAGGCUUCCCAUUGCUGCUGCUAUGGAAUUCUCGGGUGCCAA | 0.435 |
| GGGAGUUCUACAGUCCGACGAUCAGAUGUGUUUGCAGAAAGAAGGAACAAGGCAUCGGGAGAGCGUUUACUCCUAGUCCUACCAGUAAGGCGUCCACUUGCAAUGGUAACUGAGUCCACAAACAGCUGUUAGAUGGAAUUCUCGGGUGCCAA | 0.983 |
| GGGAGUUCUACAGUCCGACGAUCAGCAAAACUGCUGUCGCUGCAGUAUCUGAUACCAGACAUCCACAUAUCCACAAGAAGUGCCUCUUAGGUCUGUGACAGAGAGUGUGUCUCCAUUCCUCAGUUCCCAGAAAUGGAAUUCUCGGGUGCCAA | 0.259 |
| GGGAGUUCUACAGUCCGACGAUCUGGGUCAUCGGGGCUCACUGCCUCCUGCCCUUCUCUCCUGUCUGACCCCCACUUAGCCCUUCUCUCCUUGCAGCCUAGCAGUUUAUAGUUCUGAGAUGGAAAGUUGAAGGUGGAAUUCUCGGGUGCCAA | 0.323 |
| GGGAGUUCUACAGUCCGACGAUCCAUGAAAAAAAUCAAAUUUUUGAUUUAUUAUAAAUGAAUGUUGUCCCUGAACUUAGCUAAAUGGUGCACUUAGUUUCUCCUUGCUUUCAUAUUAUCGAAUUCGAAUUUCCUGGAAUUCUCGGGUGCCAA | 0.396 |
| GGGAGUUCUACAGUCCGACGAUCACUGGUAAUUUUCUGUAUAUUUGCAAUAUUUGGGUUAGAAAUAAACAGCCUGGACUUUGGUACCUAACCUACUAAGAUGAGUAAGCUACAGUUUUGUAUUGUUUUGUUUUUGGAAUUCUCGGGUGCCAA | 0.901 |
| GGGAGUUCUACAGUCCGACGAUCCUAAACACAACAGGGCACAGCAAAUACGACUUCAUUUGGCUUCGAGUUCCCCAGGCGCUGUAGACACAACAUGAAUCGGGCUCUCUGCUCUCUCCUUAGGGAGCUCGAGUUGGAAUUCUCGGGUGCCAA | 0.419 |
| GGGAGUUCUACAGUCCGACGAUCUUCCCAAACAGAGCAGUUAACUUUACUCUUGGUUCUGAGUCUCCAAAUAAUAAUAGCCGACGUUUAUUGAGCACUUACUAUGUGCCCAACCCUGUUAUGCCUUUCUCAGGUGGAAUUCUCGGGUGCCAA | 0.376 |

Repeated from above (sample 1):
| Sequence | E-score |
| --- | --- |
| GGGTGTTA | 0.0347 |
| GACCTATA | -0.0767 |
| ATCAGAGC | -0.0567 |
| CCCCTGAG | -0.195 |
| ACCGTCTG | 0.139 |
| TGCATCCA | -0.253 |
